{"data": "Measured values collected from several papers", "note": "A part holds a random share of what one study measured. Substitutions count along the parent as printed."}
{"data": "Study 1", "target": "CEP164, C-terminal peptide (human)", "technique": "DHFR complementation, deep sequencing", "medium": "yeast", "setting": "single substitutions, model-inferred values", "baseline": "wild type", "reading": "higher = weaker binding", "starting sequence": "PDZK1, PDZ domain 2 (human); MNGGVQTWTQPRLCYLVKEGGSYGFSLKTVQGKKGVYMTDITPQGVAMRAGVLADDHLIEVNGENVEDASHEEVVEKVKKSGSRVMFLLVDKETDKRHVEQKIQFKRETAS; partner HNRVKVYRF"}
{"Variant": "P43H", "binding free energy change [kcal/mol]": 0.224}
{"Variant": "I41A", "binding free energy change [kcal/mol]": 1.28}
{"Variant": "W8D", "binding free energy change [kcal/mol]": -0.0203}
{"Variant": "I59K", "binding free energy change [kcal/mol]": 0.533}
{"Variant": "M1S", "binding free energy change [kcal/mol]": -0.0913}
{"Variant": "L89R", "binding free energy change [kcal/mol]": 1.66}
{"Variant": "M86K", "binding free energy change [kcal/mol]": -0.127}
{"data": "Study 2", "target": "Sal-like protein 4, full length isoform B (SALL4, Homo sapiens, UniProt Q9UJQ4-2, residues 1-616)", "technique": "universal PBM", "form": "double-stranded DNA, one strand shown", "medium": "in vitro", "tested at": "not given", "setting": "8-mer, flanks averaged, mean of replicates", "reading": "higher = stronger binding"}
{"Sequence": "GCGTAGCA", "E-score": -0.0856}
{"Sequence": "GCGCTAGC", "E-score": -0.222}
{"Sequence": "ACTTGAAC", "E-score": 0.0878}
{"Sequence": "CGCTACGA", "E-score": -0.0584}
{"Sequence": "ATTCGCGA", "E-score": -0.00711}
{"Sequence": "AGCGTCCC", "E-score": -0.202}
{"Sequence": "TACGCTCA", "E-score": 0.154}
{"Sequence": "AGATAGGA", "E-score": 0.0135}
{"Sequence": "CCCCACGC", "E-score": -0.182}
{"data": "Study 3", "target": "Interferon regulatory factor 5, full length, phosphomimetic (IRF5, Homo sapiens, UniProt Q13568-2, residues 1-514, K96S/S451D/S453D/S456D/S462D)", "technique": "protein-binding microarray", "form": "double-stranded DNA, one strand shown", "medium": "in vitro", "tested at": "250 nM", "setting": "60-bp whole probe", "added": "salmon DNA 0.4 mg/ml", "baseline": "random background probes", "reading": "higher = stronger binding", "shared flanks, not repeated": "GCCTAGCAC … GTCTTGATTCGCTTGACGCTGCTG"}
{"Sequence": "GACGATATCGGGACTGGAGGCGTGCTA", "log fluorescence [z-score]": 0.769}
{"Sequence": "GATGGTTTCGGTATCGGGACGTGCTAG", "log fluorescence [z-score]": 10.3}
{"Sequence": "GACGGTTTCGGACTGCGGACGTGCTAG", "log fluorescence [z-score]": 4.28}
{"Sequence": "TTAGAACTGTGGTATCGATTAGTGCTA", "log fluorescence [z-score]": 4.52}
{"Sequence": "TTAGATATCAGACTCGATTAGTGCTAG", "log fluorescence [z-score]": 0.178}
{"Sequence": "TTAGATGCCAGTTTCGATTAGTGCTAG", "log fluorescence [z-score]": 9.77}
{"Sequence": "TTAGGTTTCGGTTCCGGTTGGTGCTAG", "log fluorescence [z-score]": 10.3}
{"Sequence": "TTAGGACTTGGGTTTCGGTTAGTGCTA", "log fluorescence [z-score]": 7.66}
{"data": "Further values, each from its own experiment"}
{"Molecule": "PhoQ, residues 284 288 289 292 302 303 QWGLFV", "target": "PhoP, residues 12 14 15 18 19 GHCSL (Escherichia coli, UniProt P23836)", "assay": "Sort-seq, refers to: YFP reporter", "system": "E. coli", "setting": "PhoQ-PhoP variant library, added: 10 µM Mg2+", "scale": "baseline: high Mg2+ state, higher = stronger signaling", "quantity": "fold induction", "value": 5.36}
{"note": "For quick reference, copied from above (study 3):"}
{"Sequence": "GACGGTTTCGGACTGCGGACGTGCTAG", "log fluorescence [z-score]": 4.28}
{"Sequence": "TTAGGACTTGGGTTTCGGTTAGTGCTA", "log fluorescence [z-score]": 7.66}
